Measurements gathered from unrelated publications.
Each numbered part is a random draw from the data of one study; scales do not carry over between parts. Changes are numbered by the printed parent chain.

Block 1 — method: aptamer microarray, sandwich; form: DNA with 2'F-ANA; medium: in vitro; concentration: 200 nM; added: Cy3 exosite-II aptamer, 400 nM; direction: higher = stronger binding; oligonucleotide: GGTTGGTGTGGTTGG
Target: Prothrombin, mature alpha-thrombin (F2, Homo sapiens, UniProt P00734)
Setting: whole 15-mer aptamer, many near background
`2'F-ANA at 1 3 5 9 10 11 12 14` — result for “mean fluorescence intensity”: 70.3 a.u.
`2'F-ANA at 1 2 4 6 7 8 9 12 13 14` — result for “mean fluorescence intensity”: 57.1 a.u.
Under “mean fluorescence intensity”, `2'F-ANA at 3 6 8 10 11 14` is recorded as 387 a.u.
Under “mean fluorescence intensity”, `2'F-ANA at 1 2 4 9 10 11 13` is recorded as 50.4 a.u.
Under “mean fluorescence intensity”, `2'F-ANA at 1 2 6 11 15` is recorded as 125 a.u.
For `2'F-ANA at 2 3 5 7 8 9 14 15`, “mean fluorescence intensity” read 59.6 a.u.
`2'F-ANA at 6 14 15`: “mean fluorescence intensity” 202 a.u.
`2'F-ANA at 1 2 3 5 6 7 8 9 10 12`: “mean fluorescence intensity” 107 a.u.

Block 2 — target: CCNE2, cyclin fold, Cln2 fusion (human); method: yeast growth competition, sequencing; medium: yeast; setting: strong parent motif; relative to: not given; direction: higher = stronger binding
Parent: BRCA2 docking peptide (human); PSIKRNLLNEFDR; partner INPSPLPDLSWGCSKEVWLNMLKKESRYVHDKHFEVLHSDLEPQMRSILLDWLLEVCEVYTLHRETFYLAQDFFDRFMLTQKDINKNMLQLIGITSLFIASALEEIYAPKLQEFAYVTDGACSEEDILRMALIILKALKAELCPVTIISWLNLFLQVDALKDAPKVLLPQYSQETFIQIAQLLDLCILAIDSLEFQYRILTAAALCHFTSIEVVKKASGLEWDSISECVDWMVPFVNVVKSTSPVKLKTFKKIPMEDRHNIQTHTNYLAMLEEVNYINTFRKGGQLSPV
`N6V`: “normalised enrichment score” 0.241.
`F11M` — result for “normalised enrichment score”: 0.775.
`I3H` — result for “normalised enrichment score”: 2.08.
For `R13E`, “normalised enrichment score” read 1.44.
`P1G`: “normalised enrichment score” 1.62.
Under “normalised enrichment score”, `D12G` is recorded as 1.73.

Block 3 — target: ATF1, bZIP domain (human); method: DHFR protein complementation; medium: yeast; relative to: wild-type JUN-FOS pair; direction: higher = stronger binding
Setting: single substitutions, most at no-binding floor
Parent: JUN, bZIP domain (human); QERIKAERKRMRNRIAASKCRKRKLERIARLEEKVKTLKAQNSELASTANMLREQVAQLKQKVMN; partner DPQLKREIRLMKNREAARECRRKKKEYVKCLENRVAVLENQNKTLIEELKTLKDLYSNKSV
With `S47F` the binding fitness was -1.51 natural log.
`A29E` has a binding fitness of -1.41 natural log.
For `L31K`, the binding fitness was -1.55 natural log.
For `A29D`, the binding fitness was -1.22 natural log.
For `K34H`, the binding fitness was -1.45 natural log.
`A29N` has a binding fitness of -1.52 natural log.
`A29W` has a binding fitness of -1.51 natural log.
With `K39E` the binding fitness was -1.45 natural log.

Further values, each from its own experiment
`PhoQ, residues 284 288 289 292 302 303 TASMAF` has a fold induction of 12.4 (PhoP, residues 12 14 15 18 19 AGCRL (Escherichia coli, UniProt P23836); Sort-seq, measured: YFP reporter; E. coli; PhoQ-PhoP variant library, added: 10 µM Mg2+; relative to: high Mg2+ state, higher = stronger signaling).

A few entries again (block 3):
For `K34H`, the binding fitness was -1.45 natural log.
